Results of several laboratories.
Numbered parts are unrelated; each lists some results of a single study. Positions count from the first letter of the parent shown.

Study 1 — method: RNA Bind-n-Seq; form: RNA; medium: in vitro; tested at: not given; setting: RNA with constant flanks, ends assumed; reference: input RNA pool; direction: higher = stronger binding; quantity: bound/input enrichment
Target: RING finger protein unkempt homolog, zinc fingers 1-6, GST-SBP tag (UNK, Homo sapiens, UniProt Q9C0B0, residues 30-357)
All sequences stand within: GGGAGUUCUACAGUCCGACGAUC … CAACAGAGGAUUGAGCAUCA
Residues (chain): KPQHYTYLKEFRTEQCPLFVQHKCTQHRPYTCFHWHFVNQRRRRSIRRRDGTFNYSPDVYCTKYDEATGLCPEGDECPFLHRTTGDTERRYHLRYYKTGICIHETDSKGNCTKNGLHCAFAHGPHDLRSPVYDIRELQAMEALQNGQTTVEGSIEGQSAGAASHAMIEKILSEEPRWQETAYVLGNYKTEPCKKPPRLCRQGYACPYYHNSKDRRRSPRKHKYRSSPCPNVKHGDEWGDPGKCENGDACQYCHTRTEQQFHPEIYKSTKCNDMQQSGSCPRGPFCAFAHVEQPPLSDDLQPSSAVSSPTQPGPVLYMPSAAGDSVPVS
GCAGGUGUCAAUAGUGAUAGCCCUAAUAACUGUUCAGGAAAAAAGGUAGAACCUUCAGCUUCCGCUUGCCGAUCACAGAAUUUAAAGGAAUCUUCAGUAAAAGUAGAUAAUGAAAGCUGU: 0.594 ratio
UUGCAUGGAGACAUUCCACAGAAGCAAAGGGAAAUCACCCUGAAAGGUUUUAGAAAUGGCCGUUUUGGAGUUUUGGUGGCAACCAAUGUUGCUGCACGUGGGUUAGACAUCCCUGAGGUU: 0.222 ratio
UCAUCUUCUGUUGCUUUUAAAUUAUCUGACAAUGGAGACUCUAUUCCUUAUACCAUCAACCGGUAUUUGAGAGACUACCAAAGAGAAGGAACCCGGUUUCUUUAUGGACACUACAUCCAU: 0.249 ratio
GCCUUAGCUGCAUCUUGGACCUCAAGACAAGUAGGAGAACGGACGUUGACCGGUACGGUAACCGACAGUGGAGAUGGUGUCACUCAUGUCAUUCCUGUGGCUGAAGGGUAUGUGAUUGGC: 0.178 ratio
GAGAAGAUUAUCUGUAACUUAAAACCAGCUUUAAAACUUCGUCUUCGAUUCAUCACACACAUCCGCAAGAUGGAGCCAGCUGCAGUGCCUCCACAAGCCAUGAACAGUGGGUCUCCAGCA: 0.205 ratio
GGACGGUGCUGGUUUUCUACCUGCUUACUCUUGUUCUCACAGGCAGGGGACCAGCAACCCCCGAUAUUUCUGGAACUUCUUUGACCUGGAAGGAACCUUUGGGAGCUGUGACUCCCUGUG: 0.16 ratio
UUUUAUGCACCCACCGCAGCUGUUGAAAGCAUGGUGGAGCACUUGUCUCGAGAUACCGAUGUGAUCCGAGGGAAUAUUGUCAAACACCCUCUGACCCAGGAACUAAAAGAAUGUGAAGGG: 0.0942 ratio
ACUACCCUUUCUGGGGUCCAAGAAGAAUCUGCCCUUUGCUAUCUUCUCCAAGUUGAUGAGUUCCGAUUUUUAUUGGACUGUGGCUGGGAUGAGCACUUUUCUAUGGAUAUUAUUGAUUCC: 0.306 ratio
UUCCUUCUGCAUAAGGUUUUUGUAGUGUGAUGUCUUAAUCAUAGUCUACCAUCAAAUACUUCCGGAGUAUCCUUAAUGUUUAGAUAGAAUAUUAGCAGCAUGCAAUAAUUACAUCCUAAG: 6.5 ratio
AUCGUACAUCGAGACCUCAAGGCUGAAAAUCUAUUGUUAGAUGCCGAUAUGAACAUUAAAACCGCAGAUUUCGGUUUUAGCAAUGAAUUUACUGUUGGCGGUAAACUCGACACGUUUUGU: 0.109 ratio
CCCAGCACUUUGAUAAAGACUGUGGAUUGGUUGCUGGUGUUUUCCUUGUUCUUUUUAAUCCGUUUCAUUAUGUAUGCUACCAUCCGCACUGAGAGUAUUCGGUGGCUGAUUCCAGGACAA: 0.231 ratio

Study 2 — method: aptamer microarray, sandwich; form: DNA with 2'F-ANA; medium: in vitro; tested at: 200 nM; with: Cy3 exosite-II aptamer, 400 nM; direction: higher = stronger binding; quantity: mean fluorescence intensity; oligonucleotide: GGTTGGTGTGGTTGG
Target: Prothrombin, mature alpha-thrombin (F2, Homo sapiens, UniProt P00734)
Setting: whole 15-mer aptamer, many near background
2'F-ANA at 1 6 8 11 12 13 14: 66.5 a.u.
2'F-ANA at 3 6 8 9 10 11 13 14: 361 a.u.
2'F-ANA at 1 3 4 6 7 11 12 13 15: 224 a.u.
2'F-ANA at 1 5 6 8 11 12 13 14 15: 55 a.u.
2'F-ANA at 2 5 6 8 10 14 15: 43.9 a.u.
2'F-ANA at 1 2 3 4 5 8 9 10 12 13 14 15: 54.6 a.u.
2'F-ANA at 1 2 4 5 9 10 11 12 15: 46.7 a.u.
2'F-ANA at 1 3 6 8 9: 322 a.u.
2'F-ANA at 2 3 4 5 7 8 9 14 15: 206 a.u.
2'F-ANA at 1 3 6 9 12 13: 342 a.u.
2'F-ANA at 2 3 4 6 7 8 9 11 12 13 14 15: 212 a.u.
2'F-ANA at 2 6 7 9 11 13 14: 99 a.u.
2'F-ANA at 5 6 7 10 11 12 15: 107 a.u.
2'F-ANA at 2 3 6 8 12 13 14: 442 a.u.
2'F-ANA at 1 3 6 7 9 10 11 12 13 15: 88.7 a.u.
2'F-ANA at 2 3 4 6 9 11 13 15: 310 a.u.
2'F-ANA at 1 6 7 11 12 15: 271 a.u.
2'F-ANA at 1 2 3 5 6 11 13 15: 58 a.u.
2'F-ANA at 1 3 5 6 9 11 13 14: 47.1 a.u.
2'F-ANA at 1 5 6 7 9 11 12 15: 89.8 a.u.
2'F-ANA at 1 2 3 5 15: 60 a.u.
2'F-ANA at 3 4 6 8 9 13 14: 209 a.u.
2'F-ANA at 1 2 3 4 7 8 10 12 13 15: 66.3 a.u.
2'F-ANA at 5 8 10 11 12: 50.9 a.u.
2'F-ANA at 4 5 7 8 9 11 12 13 14 15: 52.8 a.u.

Study 3 — target: ATF5, bZIP domain (human); method: DHFR protein complementation; medium: yeast; reference: wild-type JUN-FOS pair; direction: higher = stronger binding; quantity: binding fitness
Setting: single substitutions, most at no-binding floor
Starting sequence: JUN, bZIP domain (human); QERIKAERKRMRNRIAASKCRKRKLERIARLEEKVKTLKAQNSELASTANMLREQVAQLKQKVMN; partner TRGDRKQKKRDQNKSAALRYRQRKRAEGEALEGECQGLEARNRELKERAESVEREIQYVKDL
A46Q: -1.15 natural log
I28F: -1.54 natural log
T48C: -1.42 natural log
E44G: -1.52 natural log
L45Y: -1.47 natural log
N42F: -1.54 natural log
T37H: -1.47 natural log
E33F: -1.42 natural log
L31A: -1.42 natural log
V56Y: -1.51 natural log
E54H: -1.5 natural log
L52G: -1.52 natural log
E54T: -1.3 natural log
A49S: -1.41 natural log
Q41L: -1.58 natural log
T37D: -1.48 natural log
K39C: -1.53 natural log
E44Y: -1.39 natural log
L31G: -1.51 natural log
A57E: -1.51 natural log
S43C: -1.49 natural log
Q41S: -1.6 natural log
R30N: -1.53 natural log
Q55H: -1.19 natural log
A29D: -1.5 natural log

Study 4 — method: DHFR PCA, deep sequencing; medium: yeast; with: (+)-ABA 710 µM; reference: wild-type fitted maximum; direction: higher = stronger binding; quantity: relative binding score
Target: ABI1, truncated, D143A, DHFR fusion (Arabidopsis thaliana)
Setting: methotrexate growth selection, single substitutions
Starting sequence: PYL1, truncated, DHFR fusion (Arabidopsis thaliana); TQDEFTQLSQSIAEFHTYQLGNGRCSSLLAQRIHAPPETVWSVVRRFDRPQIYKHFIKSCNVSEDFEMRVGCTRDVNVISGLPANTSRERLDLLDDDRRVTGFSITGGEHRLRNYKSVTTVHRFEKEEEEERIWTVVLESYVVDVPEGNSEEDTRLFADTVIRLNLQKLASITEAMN; partner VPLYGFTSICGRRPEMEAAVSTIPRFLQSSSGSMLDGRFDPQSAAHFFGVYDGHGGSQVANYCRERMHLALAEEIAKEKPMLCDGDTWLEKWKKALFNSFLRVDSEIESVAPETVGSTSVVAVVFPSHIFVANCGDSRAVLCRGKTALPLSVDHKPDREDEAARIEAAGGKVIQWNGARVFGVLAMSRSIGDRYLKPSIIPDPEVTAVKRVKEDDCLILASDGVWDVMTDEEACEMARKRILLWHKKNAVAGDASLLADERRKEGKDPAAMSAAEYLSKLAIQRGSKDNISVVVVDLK
S27I: -0.0214%
A30F: 101%
L93D: 77.7%
D96Y: 58.6%
L28I: 97.3%
R99S: 88.2%
E152G: 98.1%
R163E: 87.5%
I133A: 112%
A84L: 18%
A170S: 94.2%
F103E: -6.44%
N85G: 104%
I57F: 47.8%
S104M: 78.2%
N61K: 104%
K58Y: 96%
D3C: 102%

Study 5 — target: CCNB3, cyclin fold, Cln2 fusion (human); method: yeast growth competition, sequencing; medium: yeast; setting: weak parent motif; reference: not given; direction: higher = stronger binding; quantity: normalised enrichment score
Starting sequence: CDKN1B docking peptide (human); PSACRNLFGPVDH; partner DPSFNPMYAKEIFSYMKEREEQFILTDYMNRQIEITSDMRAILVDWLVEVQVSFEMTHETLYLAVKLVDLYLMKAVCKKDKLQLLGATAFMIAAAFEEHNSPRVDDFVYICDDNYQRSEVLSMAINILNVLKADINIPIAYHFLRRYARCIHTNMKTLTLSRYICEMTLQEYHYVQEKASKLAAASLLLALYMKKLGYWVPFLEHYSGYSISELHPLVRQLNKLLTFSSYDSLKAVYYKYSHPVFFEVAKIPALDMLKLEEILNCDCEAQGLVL
PSACRNLFGMVDH [P10M]: -0.0481
PSACRNLFGPKDH [V11K]: 0.192
PSACRNLFGPVMH [D12M]: 0.293
PSACWNLFGPVDH [R5W]: 0.221
PSACRNLFDPVDH [G9D]: 0.409
PSACRNLFGPVLH [D12L]: 0.437
PSACRNLFGPIDH [V11I]: 0.741
PSACRNLDGPVDH [F8D]: 0.0358
PSACRNLLGPVDH [F8L]: -0.0264
PSACRNLFGPVDT [H13T]: 0.417
PSACRNLFGPVQH [D12Q]: 0.52
PSACRYLFGPVDH [N6Y]: 0.12
PSACRHLFGPVDH [N6H]: 0.118
PSACRNLFGPVWH [D12W]: 0.552
PSACRNPFGPVDH [L7P]: -0.0301
PSACRALFGPVDH [N6A]: 0.256
PVACRNLFGPVDH [S2V]: 0.271
NSACRNLFGPVDH [P1N]: 0.565
PSACRNLFGYVDH [P10Y]: 0.356
PSADRNLFGPVDH [C4D]: 0.423
PSACRELFGPVDH [N6E]: 0.343
PSACRNLFGPVPH [D12P]: 0.306
PSACYNLFGPVDH [R5Y]: 0.727
PSACRNLRGPVDH [F8R]: 0.125
PSACRNLFGPADH [V11A]: 0.0578
